Assay results gathered from unrelated publications.
Each line is one published result; not all experiments were run side by side. ± gives the spread as reported.
Chain of UniProt O60656 (whole entry, looked up): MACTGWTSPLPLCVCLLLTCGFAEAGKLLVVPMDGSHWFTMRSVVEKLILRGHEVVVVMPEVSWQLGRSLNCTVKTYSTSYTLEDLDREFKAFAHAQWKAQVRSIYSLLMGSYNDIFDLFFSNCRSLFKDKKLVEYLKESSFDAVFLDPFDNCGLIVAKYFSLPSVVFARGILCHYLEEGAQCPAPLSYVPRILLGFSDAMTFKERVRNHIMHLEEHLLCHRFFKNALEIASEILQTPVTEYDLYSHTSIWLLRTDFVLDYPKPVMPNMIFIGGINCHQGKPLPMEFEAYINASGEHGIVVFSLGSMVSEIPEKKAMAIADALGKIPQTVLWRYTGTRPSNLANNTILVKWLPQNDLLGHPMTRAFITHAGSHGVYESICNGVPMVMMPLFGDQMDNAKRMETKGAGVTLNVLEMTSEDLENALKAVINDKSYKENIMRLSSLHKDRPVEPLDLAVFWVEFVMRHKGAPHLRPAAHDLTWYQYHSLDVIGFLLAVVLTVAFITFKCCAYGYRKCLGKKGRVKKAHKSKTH

Molecule | target or system | test | test system | setting | how to read | measurement | result
O=C(NO)c1ccc(Cn2cc(Cn3cnc4cc(Br)ccc4c3=O)nn2)cc1 | MRC5 | cell growth or viability, MTT | – | 48 h | – | IC50 | 7.18 µM
Fluo-4 | HeLa | flow cytometry | – | 10 µM | reference: charge-neutral linear analogue | cellular uptake | 16 fold
O=C(NO)c1ccc(Cn2cc(Cn3cnc4cc(F)ccc4c3=O)nn2)cc1 | MRC5 | cell growth or viability, MTT | – | 48 h | – | IC50 | 12.9 µM
Cc1ccc(C=NN=c2sc(-c3cccs3)nn2-c2ccc([N+](=O)[O-])cc2)cc1 | Vero and HepG2 | cytotoxicity | – | – | reference: CC50 Vero over IC50 HepG2 | selectivity index | 132
Cc1ccc2c(=O)n(Cc3cn(Cc4ccc(C(=O)NO)cc4)nn3)cnc2c1 | MRC5 | cell growth or viability, MTT | – | 48 h | – | IC50 | 23.6 µM
CC(=NN=c1sc(-c2cccs2)nn1-c1ccc([N+](=O)[O-])cc1)c1ccccc1 | Vero and A549 | cytotoxicity | – | – | reference: CC50 Vero over IC50 A549 | selectivity index | 96.4
C[C@H](NC(=O)CCCCCC1(C)C(=CC=CC=CC2=[N+](CCCS(=O)(=O)[O-])c3ccc(S(=O)(=O)O)cc3C2(C)C)N(CCCS(=O)(=O)O)c2ccc(S(=O)(=O)O)cc21)C(=O)N[C@@H](CC(=O)Nc1ccc(C(F)(F)C(F)(F)C(F)(F)C(F)(F)C(F)(F)C(F)(F)C(F)(F)C(F)(F)F)cc1)C(=O)N[C@@H](Cc1ccccc1)C(N)=O (some centres unmarked) | HeLa | peptide internalisation, flow cytometry | – | 150 nM, 1 h, 4 °C | reference: 37 °C | cellular uptake | decreased
O=C(NO)c1ccc(Nc2nc(Nc3ccc(C(=O)NO)cc3)nc(Nc3ccc(C(=O)NO)cc3)n2)cc1 | WI-38 cells | cell viability, MTT | – | 72 h | – | maximum non-toxic concentration | 5.8 ± 0.277 nM
C=C(C[C@H](N)C(=O)O)C(=O)Nc1ccc(F)cc1 | MCF7 | necrosis | – | 24 h | – | EC50 | 158 µM
salmon calcitonin | Calu-3 monolayer, air-liquid interface | – | – | 1 mg/mL apical, 3 h, pH 7.4, 37 °C, with or without HTCC | – | compound share in basal compartment | 0%
C=C(C[C@H](N)C(=O)O)C(=O)N1CCCCC1 | MCF7 | necrosis | – | 24 h | – | EC50 | 195 µM
O=[N+]([O-])c1ccc(-n2nc(-c3cccs3)sc2=NN=C2CCCCCC2)cc1 | Vero and A549 | cytotoxicity | – | – | reference: CC50 Vero over IC50 A549 | selectivity index | 124
C=C(C[C@H](N)C(=O)O)C(=O)Nc1ccc(Cl)cc1 | MCF7 | necrosis | – | 24 h | – | EC50 | 204 µM
CN(C)C(=O)CCSC(SCCC(=O)O)c1cccc(/C=C/c2ccc3ccc(Cl)cc3n2)c1 (centres unmarked) | Jurkat-DNR | cytotoxicity, measured: cell viability | – | – | – | TD50 | 20.4 µM
O=[N+]([O-])c1ccc(-n2nc(-c3cccs3)sc2=NN=Cc2ccccc2)cc1 | Vero and HepG2 | cytotoxicity | – | – | reference: CC50 Vero over IC50 HepG2 | selectivity index | 112
C=C(C[C@H](N)C(=O)O)C(=O)NCc1ccc([N+](=O)[O-])cc1 | MCF7 | necrosis | – | 24 h | – | EC50 | > 316 µM
Cn1c(C(=O)NCCCc2c[nH]c(N)n2)cc(Br)c1Br | HaCaT | MTT | – | overnight, 10% FBS | – | highest non-toxic concentration | 43 µM
C=C(C[C@H](N)C(=O)O)C(=O)Nc1ccccc1 | MCF7 | necrosis | – | 24 h | – | EC50 | > 316 µM

Molecule | target or system | test | test system | setting | how to read | measurement | result
O=c1[nH]cc(F)c(=O)[nH]1 | WI-38 lung fibroblasts | cytotoxicity, MTT | medium with 10% FBS | 72 h, dose at 100% viability | – | EC100 | 2.72 ± 0.405 µM
CCCCCCCCCCNC(=O)C[C@@H]1NC(=O)[C@H](CCC(N)=O)NC(=O)[C@H](CCCNC(=N)N)NC(=O)[C@H](CCCNC(=N)N)NC(=O)[C@H](CCCNC(=N)N)NC(=O)[C@H](CCCNC(=N)N)NC1=O | HeLa | flow cytometry | – | cytosolic entry | reference: 1% over 10% FBS | serum effect on uptake | ~7 fold
O=C(c1nc2ccccc2[nH]1)[C@H]1[C@H](c2cccc(F)c2)[C@H]2CCCN2[C@@]12c1ccccc1-c1nc3ccccc3nc12 | WI-38 lung fibroblasts | cytotoxicity, MTT | medium with 10% FBS | 72 h, dose at 100% viability | – | EC100 | 0.073 ± 0.007 µM
O=C(NNc1nc(O)nc(O)n1)c1ccc(Nc2nc(Nc3ccc(C(=O)NNc4nc(O)nc(O)n4)cc3)nc(Nc3ccc(C(=O)NNc4nc(O)nc(O)n4)cc3)n2)cc1 | WI-38 cells | cell viability, MTT | – | 72 h | – | maximum non-toxic concentration | 1.5 nM
O=C(NO)c1ccc(Cn2cc(Cn3cnc4ccc(I)cc4c3=O)nn2)cc1 | MRC5 | cell growth or viability, MTT | – | 48 h | – | IC50 | 9.2 µM
O=C(c1nc2ccccc2[nH]1)[C@H]1[C@H](c2ccc(Cl)cc2Cl)[C@H]2CCCN2[C@@]12c1ccccc1-c1nc3ccccc3nc12 | WI-38 lung fibroblasts | cytotoxicity, MTT | medium with 10% FBS | 72 h, dose at 100% viability | – | EC100 | 0.263 ± 0.083 µM
CC(=NN=c1sc(-c2cccs2)nn1-c1ccc([N+](=O)[O-])cc1)c1ccc2ccccc2c1 | Vero and A549 | cytotoxicity | – | – | reference: CC50 Vero over IC50 A549 | selectivity index | 93
CN(c1ccc2ncc(-c3ccc4cn[nH]c4c3)n2n1)C1CCOCC1 | U-251 overexpressing firefly luciferase | – | – | concentration not given, 6 h | – | luminescence decrease | 26 ± 9%
O=[N+]([O-])c1ccc(-n2nc(-c3cccs3)sc2=NN=Cc2cn(-c3ccccc3)nc2-c2ccccc2)cc1 | Vero and HepG2 | cytotoxicity | – | – | reference: CC50 Vero over IC50 HepG2 | selectivity index | 90.4
CC/C(=C(\c1ccccc1)c1ccc(OCCN(C)C)cc1)c1ccccc1 | MCF7 | necrosis | – | 24 h | – | EC50 | > 316 µM
Oc1cc(O)c2c(c1)O[C@H](c1cc(O)c(O)c(O)c1)[C@H](O)C2 | Caco-2 TC7 | – | PBS | concentration not given, 3 h, pH 5, 37 °C | reference: dose | cellular accumulation | 0.55 ± 0.07%
O=C(c1nc2ccccc2[nH]1)[C@H]1[C@H](c2ccc(F)cc2)[C@H]2CCCN2[C@@]12c1ccccc1-c1nc3ccccc3nc12 | WI-38 lung fibroblasts | cytotoxicity, MTT | medium with 10% FBS | 72 h, dose at 100% viability | – | EC100 | 0.09 ± 0.003 µM
COc1cccc2c1C(=O)c1c(O)c3c(c(O)c1C2=O)C[C@@](O)(C(=O)CO)C[C@@H]3O[C@H]1C[C@H](N)[C@H](O)[C@H](C)O1 | C2C12 cells | MTT | – | concentration not given, 72 h | reference: control | viability | 28.6%
C=C1[C@H](CO)[C@@H](O)C[C@@H]1n1cnc2c(=O)[nH]c(N)nc21 | HepG2-NTCP | viability | – | – | – | CC50 | > 25 µM
O=[N+]([O-])c1ccc(-n2nc(-c3cccs3)sc2=NN=C2CCCc3ccccc32)cc1 | Vero and HepG2 | cytotoxicity | – | – | reference: CC50 Vero over IC50 HepG2 | selectivity index | 53
UGT1A9 (Homo sapiens, UniProt O60656) | COc1cc2oc(=O)cc(-c3ccccc3)c2cc1O | steady-state kinetics | – | pH 7.4, 37 °C | – | Vmax/Km | 12 µL/min/mg
O=C(O[C@@H]1Cc2c(O)cc(O)cc2O[C@@H]1c1cc(O)c(O)c(O)c1)c1cc(O)c(O)c(O)c1 | Caco-2 TC7 | – | PBS | concentration not given, 3 h, pH 5, 37 °C, added: EGC | reference: dose | cellular accumulation | 1.24 ± 0.1%

Some of these lines once more:
Molecule | target or system | test | test system | setting | how to read | measurement | result
Oc1cc(O)c2c(c1)O[C@H](c1cc(O)c(O)c(O)c1)[C@H](O)C2 | Caco-2 TC7 | – | PBS | concentration not given, 3 h, pH 5, 37 °C | reference: dose | cellular accumulation | 0.55 ± 0.07%
O=C(c1nc2ccccc2[nH]1)[C@H]1[C@H](c2ccc(F)cc2)[C@H]2CCCN2[C@@]12c1ccccc1-c1nc3ccccc3nc12 | WI-38 lung fibroblasts | cytotoxicity, MTT | medium with 10% FBS | 72 h, dose at 100% viability | – | EC100 | 0.09 ± 0.003 µM
COc1cccc2c1C(=O)c1c(O)c3c(c(O)c1C2=O)C[C@@](O)(C(=O)CO)C[C@@H]3O[C@H]1C[C@H](N)[C@H](O)[C@H](C)O1 | C2C12 cells | MTT | – | concentration not given, 72 h | reference: control | viability | 28.6%
C=C1[C@H](CO)[C@@H](O)C[C@@H]1n1cnc2c(=O)[nH]c(N)nc21 | HepG2-NTCP | viability | – | – | – | CC50 | > 25 µM
